Measured values of several laboratories.
A part holds a random share of what one study measured. Several values in a cell are separate wells, animals, samples, runs or records.
Chain of UniProt P08588 (whole entry, looked up): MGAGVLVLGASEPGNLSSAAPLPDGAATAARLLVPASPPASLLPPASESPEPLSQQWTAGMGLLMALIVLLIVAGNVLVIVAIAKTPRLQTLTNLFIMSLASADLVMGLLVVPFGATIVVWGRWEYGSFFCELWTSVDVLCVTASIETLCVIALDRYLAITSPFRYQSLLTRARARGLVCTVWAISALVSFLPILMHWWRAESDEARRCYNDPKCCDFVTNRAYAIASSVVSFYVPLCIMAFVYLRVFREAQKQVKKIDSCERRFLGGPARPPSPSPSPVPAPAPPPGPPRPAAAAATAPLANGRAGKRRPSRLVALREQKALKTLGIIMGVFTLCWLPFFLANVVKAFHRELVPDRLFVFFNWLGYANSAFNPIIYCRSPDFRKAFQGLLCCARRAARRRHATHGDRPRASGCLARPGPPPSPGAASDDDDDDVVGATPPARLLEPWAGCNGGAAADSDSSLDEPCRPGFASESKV
Chain of UniProt Q02750 (whole entry, looked up): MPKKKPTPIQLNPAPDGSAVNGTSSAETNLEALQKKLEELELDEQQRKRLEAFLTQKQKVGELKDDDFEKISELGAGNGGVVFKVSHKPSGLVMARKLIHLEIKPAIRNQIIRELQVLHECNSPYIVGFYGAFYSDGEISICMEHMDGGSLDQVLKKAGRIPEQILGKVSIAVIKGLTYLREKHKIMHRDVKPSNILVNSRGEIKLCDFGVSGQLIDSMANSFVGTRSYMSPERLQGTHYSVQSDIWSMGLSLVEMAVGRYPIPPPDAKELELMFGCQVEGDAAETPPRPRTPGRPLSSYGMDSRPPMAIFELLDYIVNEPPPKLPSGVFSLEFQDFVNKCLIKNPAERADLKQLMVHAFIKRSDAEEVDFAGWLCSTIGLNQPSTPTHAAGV
Chain of UniProt Q96L34 (whole entry, looked up): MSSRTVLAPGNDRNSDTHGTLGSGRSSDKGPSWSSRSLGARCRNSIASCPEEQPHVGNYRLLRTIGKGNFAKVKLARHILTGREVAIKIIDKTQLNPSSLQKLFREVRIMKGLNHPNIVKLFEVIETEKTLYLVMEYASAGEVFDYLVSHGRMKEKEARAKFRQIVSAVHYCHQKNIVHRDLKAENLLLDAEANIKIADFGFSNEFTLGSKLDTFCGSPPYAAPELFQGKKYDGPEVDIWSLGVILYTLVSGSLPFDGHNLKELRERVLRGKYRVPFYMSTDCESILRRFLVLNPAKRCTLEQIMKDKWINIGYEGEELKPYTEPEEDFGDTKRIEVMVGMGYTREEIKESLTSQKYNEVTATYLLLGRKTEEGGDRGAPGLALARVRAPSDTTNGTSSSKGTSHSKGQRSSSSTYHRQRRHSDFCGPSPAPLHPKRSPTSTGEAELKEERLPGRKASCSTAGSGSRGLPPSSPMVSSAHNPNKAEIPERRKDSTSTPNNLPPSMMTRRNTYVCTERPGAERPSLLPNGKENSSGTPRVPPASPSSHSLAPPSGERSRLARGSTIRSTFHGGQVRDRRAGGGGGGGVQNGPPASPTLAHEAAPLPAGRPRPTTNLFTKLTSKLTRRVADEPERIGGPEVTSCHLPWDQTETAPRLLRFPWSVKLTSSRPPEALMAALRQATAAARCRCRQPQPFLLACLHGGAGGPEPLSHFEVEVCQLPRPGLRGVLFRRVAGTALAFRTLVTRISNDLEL
Chain of UniProt P06493 (whole entry, looked up): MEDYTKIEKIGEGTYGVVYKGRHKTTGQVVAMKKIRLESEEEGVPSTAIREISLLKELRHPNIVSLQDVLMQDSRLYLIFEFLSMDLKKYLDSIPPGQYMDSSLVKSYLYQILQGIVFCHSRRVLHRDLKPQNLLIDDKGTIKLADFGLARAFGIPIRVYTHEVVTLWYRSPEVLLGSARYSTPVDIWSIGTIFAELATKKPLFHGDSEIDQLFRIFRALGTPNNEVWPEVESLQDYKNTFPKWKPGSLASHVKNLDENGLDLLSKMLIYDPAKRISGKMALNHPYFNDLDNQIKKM
Chain of UniProt P21917 (whole entry, looked up): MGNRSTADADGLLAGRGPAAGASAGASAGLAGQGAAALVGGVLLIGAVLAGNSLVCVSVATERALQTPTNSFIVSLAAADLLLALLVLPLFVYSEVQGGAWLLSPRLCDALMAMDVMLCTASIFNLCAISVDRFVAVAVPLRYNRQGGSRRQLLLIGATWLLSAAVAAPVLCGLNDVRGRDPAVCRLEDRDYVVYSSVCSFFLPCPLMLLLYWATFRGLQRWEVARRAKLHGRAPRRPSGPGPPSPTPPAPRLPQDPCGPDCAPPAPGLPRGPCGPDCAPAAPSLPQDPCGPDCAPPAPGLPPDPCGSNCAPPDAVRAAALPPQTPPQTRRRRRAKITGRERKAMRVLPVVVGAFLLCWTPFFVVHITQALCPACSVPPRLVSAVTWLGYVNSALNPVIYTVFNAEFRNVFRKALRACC
Chain of UniProt Q13237 (whole entry, looked up): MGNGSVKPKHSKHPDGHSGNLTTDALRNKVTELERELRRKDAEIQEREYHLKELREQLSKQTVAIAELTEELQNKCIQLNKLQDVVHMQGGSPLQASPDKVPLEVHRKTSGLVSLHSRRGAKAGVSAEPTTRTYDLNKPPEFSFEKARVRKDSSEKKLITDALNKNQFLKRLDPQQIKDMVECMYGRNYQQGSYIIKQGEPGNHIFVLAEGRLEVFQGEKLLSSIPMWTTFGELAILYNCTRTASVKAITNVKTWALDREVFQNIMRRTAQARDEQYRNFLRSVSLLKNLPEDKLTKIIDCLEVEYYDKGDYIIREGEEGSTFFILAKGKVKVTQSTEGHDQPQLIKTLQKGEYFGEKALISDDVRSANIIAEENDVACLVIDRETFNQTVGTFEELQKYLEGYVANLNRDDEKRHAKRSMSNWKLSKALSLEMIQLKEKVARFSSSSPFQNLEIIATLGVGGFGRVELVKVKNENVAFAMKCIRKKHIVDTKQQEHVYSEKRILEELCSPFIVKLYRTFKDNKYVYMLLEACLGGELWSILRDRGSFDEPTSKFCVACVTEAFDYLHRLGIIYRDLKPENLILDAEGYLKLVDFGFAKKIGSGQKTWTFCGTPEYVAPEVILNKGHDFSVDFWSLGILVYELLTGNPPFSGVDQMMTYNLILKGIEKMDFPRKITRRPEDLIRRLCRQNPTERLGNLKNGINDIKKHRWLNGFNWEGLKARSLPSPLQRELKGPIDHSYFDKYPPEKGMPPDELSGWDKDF
Chain of UniProt O75914 (whole entry, looked up): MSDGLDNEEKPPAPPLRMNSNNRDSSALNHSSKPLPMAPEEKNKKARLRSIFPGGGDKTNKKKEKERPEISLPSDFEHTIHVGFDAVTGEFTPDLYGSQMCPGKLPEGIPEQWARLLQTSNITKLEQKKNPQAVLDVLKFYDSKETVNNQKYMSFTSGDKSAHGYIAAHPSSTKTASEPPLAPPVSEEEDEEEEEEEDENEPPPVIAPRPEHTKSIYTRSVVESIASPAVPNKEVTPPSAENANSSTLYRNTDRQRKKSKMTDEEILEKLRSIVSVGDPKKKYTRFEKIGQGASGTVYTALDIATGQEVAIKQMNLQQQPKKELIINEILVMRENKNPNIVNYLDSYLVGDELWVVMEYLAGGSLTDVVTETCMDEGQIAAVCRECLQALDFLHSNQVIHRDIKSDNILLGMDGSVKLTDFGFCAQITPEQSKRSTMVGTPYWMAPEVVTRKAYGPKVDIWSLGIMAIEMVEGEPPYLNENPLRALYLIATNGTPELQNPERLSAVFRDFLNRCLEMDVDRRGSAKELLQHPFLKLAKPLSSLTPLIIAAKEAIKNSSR
Chain of UniProt Q7KZI7 (whole entry, looked up): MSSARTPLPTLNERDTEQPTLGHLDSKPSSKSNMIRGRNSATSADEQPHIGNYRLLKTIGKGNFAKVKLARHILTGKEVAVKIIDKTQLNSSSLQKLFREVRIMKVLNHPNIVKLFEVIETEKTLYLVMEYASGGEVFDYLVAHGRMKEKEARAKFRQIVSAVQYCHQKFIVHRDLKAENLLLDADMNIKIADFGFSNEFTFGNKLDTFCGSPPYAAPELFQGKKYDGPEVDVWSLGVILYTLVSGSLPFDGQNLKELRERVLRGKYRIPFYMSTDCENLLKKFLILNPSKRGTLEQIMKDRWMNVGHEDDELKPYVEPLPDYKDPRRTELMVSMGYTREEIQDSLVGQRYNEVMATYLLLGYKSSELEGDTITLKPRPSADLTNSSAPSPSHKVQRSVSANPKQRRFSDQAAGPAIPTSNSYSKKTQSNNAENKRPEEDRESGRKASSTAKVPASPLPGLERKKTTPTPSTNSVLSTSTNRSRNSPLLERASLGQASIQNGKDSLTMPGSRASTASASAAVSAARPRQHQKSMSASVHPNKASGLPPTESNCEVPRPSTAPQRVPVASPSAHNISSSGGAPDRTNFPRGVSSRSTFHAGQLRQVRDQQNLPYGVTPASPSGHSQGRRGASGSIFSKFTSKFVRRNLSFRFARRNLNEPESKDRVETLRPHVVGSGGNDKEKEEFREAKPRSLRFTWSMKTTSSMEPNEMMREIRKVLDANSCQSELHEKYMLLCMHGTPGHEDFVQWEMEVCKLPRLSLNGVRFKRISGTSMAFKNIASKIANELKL

Study 1 — observed: enzyme activity; action: inhibitor; tested at: 0.5 µM; baseline: control
Structure (SMILES): O=C(c1cc2cc(O)ccc2[nH]1)c1cc2cc(O)ccc2[nH]1
target | remaining activity [%]
Cyclin-dependent kinase 1, with cyclin A (CDK1, Homo sapiens, UniProt P06493) | 88.2
cGMP-dependent protein kinase 2 (PRKG2, Homo sapiens, UniProt Q13237) | 80.6
Discoidin domain-containing receptor 2 (DDR2, Homo sapiens, UniProt Q16832) | 95.7
G protein-coupled receptor kinase 4 (GRK4, Homo sapiens, UniProt P32298) | 103
Dual specificity protein kinase CLK4 (CLK4, Homo sapiens, UniProt Q9HAZ1) | 79.1
Serine/threonine-protein kinase MARK2 (MARK2, Homo sapiens, UniProt Q7KZI7) | 59.9
Calcium/calmodulin-dependent protein kinase type IV (CAMK4, Homo sapiens, UniProt Q16566) | 96.5
Mitogen-activated protein kinase 11 (MAPK11, Homo sapiens, UniProt Q15759) | 95.7
Dual specificity mitogen-activated protein kinase kinase 1 (MAP2K1, Homo sapiens, UniProt Q02750) | 103
Serine/threonine-protein kinase PAK 3 (PAK3, Homo sapiens, UniProt O75914) | 99.2
Tyrosine-protein kinase TXK (TXK, Homo sapiens, UniProt P42681) | 74.9
Serine/threonine-protein kinase DCLK2 (DCLK2, Homo sapiens, UniProt Q8N568) | 88.4
MAP/microtubule affinity-regulating kinase 4 (MARK4, Homo sapiens, UniProt Q96L34) | 55.3
Mitogen-activated protein kinase 14 (MAPK14, Homo sapiens, UniProt Q16539) | 103

Study 2 — cell line: mouse MPNST tumor cells; method: high-content nuclear imaging; item: cell number; tested at: 10 µM; time: 12 h; setting: mean of 2 replicates; baseline: plate mean; direction: higher = more cells
SMILES | nuclei count
CN(C)CCn1nnnc1SCC1=C(C(=O)O)N2C(=O)[C@@H](NC(=O)Cc3csc(N)n3)[C@H]2SC1 | -0.0529 z-score
CC1(C)O[C@@H]2C[C@H]3[C@@H]4C[C@H](F)C5=CC(=O)C=C[C@]5(C)[C@H]4[C@@H](O)C[C@]3(C)[C@]2(C(=O)CO)O1 | 3.23 z-score
CN[C@@H]1[C@@H](O)[C@@H](O[C@@H]2[C@@H](O)[C@H](O[C@H]3OC(CN)=CC[C@H]3N)[C@@H](N)C[C@H]2N)OC[C@]1(C)O | -0.0554 z-score
CCOC(=O)N1c2ccc(C(F)(F)F)cc2[C@@H](N(Cc2cc(C(F)(F)F)cc(C(F)(F)F)c2)C(=O)OC)C[C@H]1CC | 4.23 z-score
Nc1nc2[nH]cc(CCc3ccc(C(=O)N[C@@H](CCC(=O)O)C(=O)O)cc3)c2c(=O)[nH]1 | -2.72 z-score
NC(=O)Nc1cc(-c2cccc(F)c2)sc1C(=O)N[C@H]1CCCNC1 | -4.69 z-score
O=c1cc(-c2ccc([N+](=O)[O-])cc2)nc2c(-c3ccc(Cl)cc3)c(Cc3ccccc3)[nH]n12 | -3.2 z-score
CCN(CC)C(=O)Nc1ccc(OCC(O)CNC(C)(C)C)c(C(C)=O)c1 (centres unmarked) | 0.514 z-score
C[C@H]1CC(=O)Nc2cc(C(=O)NCCC3CC3)ccc2N1C(=O)N1CC2CC2C1 (some centres unmarked) | 0.903 z-score
Cc1[nH]c(=O)c(C#N)cc1-c1ccncc1 | 2.21 z-score and 1.37 z-score
CCOc1nc2cccc(C(=O)OCc3oc(=O)oc3C)c2n1Cc1ccc(-c2ccccc2-c2noc(=O)[nH]2)cc1 | 1.54 z-score
CC(=O)O[C@]1(C(C)=O)CC[C@H]2[C@@H]3CCC4=CC(=O)CCC4=C3[C@@H](c3ccc(N(C)C)cc3)C[C@@]21C | 4.27 z-score

Study 3 — Compound: FC(F)(F)c1ccc2c(c1)nc(-c1cccnc1)n2C1CC1; observed: cell-free assay; tested at: 10 µM
target | inhibition [%]
Muscarinic acetylcholine receptor M2 (CHRM2, Homo sapiens, UniProt P08172) | 2.99
Beta-1 adrenergic receptor (ADRB1, Homo sapiens, UniProt P08588) | 13.4
Alpha-2A adrenergic receptor (ADRA2A, Homo sapiens, UniProt P08913) | 6.92
Muscarinic acetylcholine receptor M4 (CHRM4, Homo sapiens, UniProt P08173) | -11.5
Histamine H4 receptor (HRH4, Homo sapiens, UniProt Q9H3N8) | -9.43
5-hydroxytryptamine receptor 6 (HTR6, Homo sapiens, UniProt P50406) | 60.4
D(2) dopamine receptor (DRD2, Homo sapiens, UniProt P14416) | -19.8
Alpha-1A adrenergic receptor (ADRA1A, Homo sapiens, UniProt P35348) | -12.8
D(4) dopamine receptor (DRD4, Homo sapiens, UniProt P21917) | -3.28

Study 4 — observed: enzyme activity; action: inhibitor; tested at: 10 µM
Target: Calcium/calmodulin-dependent protein kinase type II subunit alpha (CAMK2A, Homo sapiens, UniProt Q9UQM7)
Chain of UniProt Q9UQM7 (whole entry, looked up): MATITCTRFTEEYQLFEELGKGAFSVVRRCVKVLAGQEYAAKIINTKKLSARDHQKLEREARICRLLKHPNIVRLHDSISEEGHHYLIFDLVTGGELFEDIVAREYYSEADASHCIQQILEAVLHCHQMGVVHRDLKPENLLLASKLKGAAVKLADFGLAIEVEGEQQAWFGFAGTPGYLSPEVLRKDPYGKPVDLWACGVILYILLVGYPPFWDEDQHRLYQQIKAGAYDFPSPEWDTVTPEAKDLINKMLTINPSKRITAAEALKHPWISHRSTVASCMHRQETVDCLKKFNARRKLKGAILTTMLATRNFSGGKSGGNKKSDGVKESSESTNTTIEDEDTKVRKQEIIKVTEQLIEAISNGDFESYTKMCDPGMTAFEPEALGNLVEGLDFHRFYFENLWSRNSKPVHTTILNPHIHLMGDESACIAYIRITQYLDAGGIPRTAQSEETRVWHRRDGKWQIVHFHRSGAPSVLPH
SMILES | inhibition [%]
CCN1CCCC1CNC(=O)c1cc(S(N)(=O)=O)ccc1OC (centres unmarked) | -9
CC(=O)[C@@]1(O)CC[C@H]2[C@@H]3C[C@H](C)C4=CC(=O)C=C[C@]4(C)[C@@]3(F)[C@@H](O)C[C@@]21C | -13
C/C(O)=C(\C#N)C(=O)Nc1ccc(C(F)(F)F)cc1 | -6
Cc1ncc([N+](=O)[O-])n1CCOC(=O)c1ccccc1 | -9
Nc1ncnc2c1ncn2[C@@H]1C[C@H](CO)[C@@H](O)[C@H]1O | 1
COc1c2c(cc3c1-c1c(cc4c(c1OC)OCO4)C[C@H](C)[C@H](C)C3)OCO2 | 6

For quick reference, copied from above (study 1):
target | remaining activity [%]
MAP/microtubule affinity-regulating kinase 4 (MARK4, Homo sapiens, UniProt Q96L34) | 55.3
G protein-coupled receptor kinase 4 (GRK4, Homo sapiens, UniProt P32298) | 103
Discoidin domain-containing receptor 2 (DDR2, Homo sapiens, UniProt Q16832) | 95.7
cGMP-dependent protein kinase 2 (PRKG2, Homo sapiens, UniProt Q13237) | 80.6
Serine/threonine-protein kinase PAK 3 (PAK3, Homo sapiens, UniProt O75914) | 99.2
Cyclin-dependent kinase 1, with cyclin A (CDK1, Homo sapiens, UniProt P06493) | 88.2
